# Measurements gathered from unrelated publications.
# Each line is one published result; not all experiments were run side by side. Values joined by “and” are separate records of one study, mostly repeats; a detail may differ. ± gives the spread as reported.
# Chain of UniProt P35869 (whole entry, looked up): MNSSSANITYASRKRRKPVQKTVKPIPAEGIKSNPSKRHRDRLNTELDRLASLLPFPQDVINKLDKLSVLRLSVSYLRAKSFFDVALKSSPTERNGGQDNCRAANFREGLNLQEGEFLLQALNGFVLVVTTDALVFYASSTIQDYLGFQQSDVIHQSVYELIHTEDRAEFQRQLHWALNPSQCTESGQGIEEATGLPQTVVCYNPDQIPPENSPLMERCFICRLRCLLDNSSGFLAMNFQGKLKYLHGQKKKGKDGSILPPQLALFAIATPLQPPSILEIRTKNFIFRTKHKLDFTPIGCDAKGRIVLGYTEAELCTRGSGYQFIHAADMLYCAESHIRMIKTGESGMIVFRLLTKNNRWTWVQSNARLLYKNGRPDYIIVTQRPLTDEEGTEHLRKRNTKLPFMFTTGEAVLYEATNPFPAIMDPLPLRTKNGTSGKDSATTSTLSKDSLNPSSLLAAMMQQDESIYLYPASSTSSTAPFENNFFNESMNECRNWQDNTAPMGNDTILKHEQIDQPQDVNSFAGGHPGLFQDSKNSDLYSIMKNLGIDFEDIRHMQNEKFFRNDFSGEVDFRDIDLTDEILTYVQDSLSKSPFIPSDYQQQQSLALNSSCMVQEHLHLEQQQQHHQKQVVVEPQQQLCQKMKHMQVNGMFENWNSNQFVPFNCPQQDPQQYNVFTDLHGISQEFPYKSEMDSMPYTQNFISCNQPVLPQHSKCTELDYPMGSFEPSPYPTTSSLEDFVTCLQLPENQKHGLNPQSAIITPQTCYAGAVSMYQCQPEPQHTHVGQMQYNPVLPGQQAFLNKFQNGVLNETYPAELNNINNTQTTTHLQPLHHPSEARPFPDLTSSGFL
# Chain of UniProt P00761 (whole entry, looked up): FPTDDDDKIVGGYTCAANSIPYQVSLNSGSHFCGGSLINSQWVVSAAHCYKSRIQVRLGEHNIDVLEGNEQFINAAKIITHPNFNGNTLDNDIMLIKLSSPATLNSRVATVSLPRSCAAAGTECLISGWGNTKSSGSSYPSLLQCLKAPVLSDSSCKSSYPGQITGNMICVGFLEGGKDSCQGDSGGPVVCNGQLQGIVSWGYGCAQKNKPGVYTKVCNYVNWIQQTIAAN
# Chain of UniProt P10632 (whole entry, looked up): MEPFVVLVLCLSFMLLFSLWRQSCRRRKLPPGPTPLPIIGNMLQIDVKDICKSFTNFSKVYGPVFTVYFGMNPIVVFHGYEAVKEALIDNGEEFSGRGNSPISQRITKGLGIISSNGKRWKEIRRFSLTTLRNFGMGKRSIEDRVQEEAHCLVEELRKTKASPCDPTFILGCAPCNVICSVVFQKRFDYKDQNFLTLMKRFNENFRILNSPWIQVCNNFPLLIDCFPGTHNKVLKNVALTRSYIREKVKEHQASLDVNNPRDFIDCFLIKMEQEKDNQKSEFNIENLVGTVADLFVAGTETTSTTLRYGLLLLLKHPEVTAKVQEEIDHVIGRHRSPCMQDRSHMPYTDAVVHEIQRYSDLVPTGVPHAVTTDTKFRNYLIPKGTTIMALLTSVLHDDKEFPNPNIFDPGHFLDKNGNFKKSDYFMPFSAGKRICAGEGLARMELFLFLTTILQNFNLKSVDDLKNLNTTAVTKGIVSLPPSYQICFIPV
SMILES,tested on,test,system,setting,how to read,measurement,value
CNC(=O)C1CCCN(C(=O)C2CC3CCC2N3C(=O)[C@@H]2C[C@@H](O)CN2C(=O)NCc2cccc(Cl)c2F)C1 (mixture of isomers),"Cytochrome P450 2C8 (CYP2C8, Homo sapiens, UniProt P10632)","enzyme activity, inhibitor","human, liver microsomes",,,IC50,> 50 µM
CC(C)Cc1ccc(C(C)C(=O)N[C@@H](CCCCNC(=O)CCOCCOCCOCCOCCOCCOCCNC(=O)CN2CCN(CC(=O)[O-])CCN(CC(=O)[O-])CCN(CC(=O)[O-])CC2)C(=O)Nc2cccc3c(C(=O)NCC(=O)N4CC(F)(F)C[C@H]4C#N)ccnc23)cc1.[177Lu+3] (stereo partly drawn),U-87 MG tumour model,,"host not given, liver","24 h, tumour-bearing",,tracer uptake,2.71 %ID/g
c1cc(C2CCCCC2)ccc1-c1ccc(N2CCCC2)nc1,,liver microsome stability,rat liver microsomes,1 µM,,hepatic clearance,32 mL/min/kg
Cc1cc(=O)c2c(O)c3c(O[C@@H]4O[C@H](CO)[C@@H](O)[C@H](O)[C@H]4O)cc(O)cc3cc2o1,HepaRG co-cultured with HK-2,MTT,,"33.33 µM, 48 h",baseline: untreated control,cell viability,76 ± 6.88%
COC(=O)CC[C@@H](NC(=O)[C@@H](Cc1ccc(OP(=O)(O)O)cc1)NC(=O)[C@@H](Cc1ccccc1)NC(=O)[C@@H](Cc1ccccc1)NC(=O)Cc1ccc2ccccc2c1)C(=O)OC,carboxylesterase,substrate,,"200 µM, 3 h, pH 7.4, 37 °C, added: carboxylesterase 1 U/mL",,ester hydrolysis,20.4%
F[C@@H]1[C@H](c2ccc(-c3cnc(N4CCOCC4)nc3)cc2)[C@H](F)[C@H](F)C[C@@H]1F,,hepatocyte stability,cryopreserved human hepatocytes,1 µM,,hepatic clearance,7.2 mL/min/kg
COc1cc(/C=C/C=C2\SC(=S)NC2=O)ccc1O,HEK-293T,CellTiter-Glo,,"2.5 µM, 24 h, unit not given",baseline: untreated,viability,0.992 and 1.01
O=C1C2CC3CC1CC(C(=O)N1CCN(c4ccc([N+](=O)[O-])c5ncccc45)CC1)(C3)C2,Salmonella typhimurium,Ames test,TA1535,"0.78 µg/well, without S9",,mean revertant colonies,6 colonies/well
CN(C)c1cccc(-c2ccc([C@H]3[C@@H](F)[C@@H](F)C[C@@H](F)[C@H]3F)cc2)c1,,hepatocyte stability,cryopreserved rat hepatocytes,1 µM,,hepatic clearance,35 mL/min/kg
CC(=O)N[C@H](C(=O)N[C@H](C(=O)N[C@@H](CCCNC(=N)N)C(=O)N[C@@H](CC(N)=O)C(=O)N[C@@H](CC(=O)O)C(=O)N[C@H](C(=O)N1CCC[C@@H]1C(=O)N1CCC[C@H]1C(=O)N[C@@H](CC(=O)O)C(=O)N[C@@H](CO)C(=O)N[C@@H](CC(C)C)C(=O)N[C@@H](CC(C)C)C(=O)N[C@H](C(=O)N[C@@H](Cc1ccccc1)C(N)=O)C(C)C)C(C)C)[C@@H](C)O)C(C)C,HEK-293T,subcellular fractionation LC-MS,nuclear fraction,"20 µM, 2 h",,concentration,not detected
CC(C)OCCOCc1ccc(OCC(O)CN(N=O)C(C)C)cc1 (stereo not drawn),Salmonella typhimurium,Ames test,TA98,"158 µg/plate, 30 % rat S9",baseline: solvent control,revertant fold increase,0.9 fold
C=C(NC(=O)c1csc(-c2nc3c(cc2O)-c2nc(cs2)C(=O)NC(C(C)O)C(=O)NC(=C(C)OC)c2nc(cs2)C(=O)NC2c4nc(cs4)C(=O)NC(COC(=O)c4c5c6c(cccc6n4O)COC(=O)C(OC4CC(C)(O)C(N(C)C)C(C)O4)C2OC5)c2nc-3cs2)n1)C(N)=O (stereo not drawn),,,"male Sprague-Dawley rats, plasma","intravenous infusion, 18 mg/kg",,AUC(0-inf),5250 ng·h/mL
NS(=O)(=O)c1cccc(-c2ccc([C@H]3[C@@H](F)[C@@H](F)C[C@@H](F)[C@H]3F)cc2)c1,,liver microsome stability,mouse liver microsomes,1 µM,,hepatic clearance,15 mL/min/kg
COc1cccc(OC)c1-c1cc(C(=O)NC2(C(=O)O)C3CC4CC(C3)CC2C4)nn1-c1ccc(C(=O)N(C)CCCN(C)C(=O)[C@H](CCCCNC(=O)[C@H](CC(C)C)NC(=O)C2OC2C(=O)O)NC(=O)CN2CCN(CC(=O)[O-])CCN(CC(=O)[O-])CCN(CC(=O)[O-])CC2)cc1C(C)C.[177Lu+3] (mixture of isomers),HT-29 tumour model,,"host not given, stomach","72 h, tumour-bearing",,tracer uptake,0.064 %ID/g
N#C[C@@H]1CCCN1C(=O)CNC(=O)c1ccnc2ccc(OCCCN3CCN(C(=O)CCc4ccc(O)c(CN5CCN6CC(=O)[O][Al-]([18F])([O]C(=O)C5)[O]c5ccc(CCC(=O)N7CCN(CCCOc8ccc9nccc(C(=O)NCC(=O)N%10CCC[C@H]%10C#N)c9c8)CC7)cc5C6)c4)CC3)cc12 (stereo partly drawn),U-87 MG tumour model,,"host not given, blood","2 h, tumour-bearing",,tracer uptake,3.83 %ID/g
COc1ccc(-c2ccc([C@H]3[C@@H](F)[C@@H](F)C[C@@H](F)[C@H]3F)cc2)cc1OC,,hepatocyte stability,cryopreserved rat hepatocytes,1 µM,,hepatic clearance,30 mL/min/kg
Nc1nc2cc(C(=O)c3ccc(F)cc3)ccc2[nH]1,Salmonella typhimurium,Ames preincubation test,TA1535,"312.5 µg/plate, 3 days, without S9",,revertants per plate,20.3 revertants/plate
COC(=O)c1cccc(C(=O)c2c(C)[nH]c3ccccc23)n1,"AHR (Homo sapiens, UniProt P35869)","reporter gene, agonist, XRE luciferase",HepG2,10 µM,baseline: ITE,activity at 10 µM,41%
N#C[C@@H]1CC(F)(F)CN1C(=O)CNC(=O)c1ccnc2c(NC(=O)[C@@H](N)CCCCNC(=O)CCOCCOCCOCCOCCOCCOCCNC(=O)CN3CCN(CC(=O)[O-])CCN(CC(=O)[O-])CCN(CC(=O)[O-])CC3)cccc12.[177Lu+3],U-87 MG tumour model,,"host not given, heart","1 h, tumour-bearing",,tracer uptake,0.25 %ID/g
COc1cccc(OC)c1-c1cc(C(=O)NC2(C(=O)O)C3CC4CC(C3)CC2C4)nn1-c1ccc(C(=O)N(C)CCOCCOCCN(C)C(=O)[C@H](CCCCNC(=O)[C@H](CC(C)C)NC(=O)C2OC2C(=O)O)NC(=O)CN2CCN(CC(=O)[O-])CCN(CC(=O)[O-])CCN(CC(=O)[O-])CC2)cc1C(C)C.[177Lu+3] (mixture of isomers),HT-29 tumour model,,"host not given, blood","24 h, tumour-bearing",,tracer uptake,0.5 %ID/g
N#Cc1cccc(-c2ccc([C@H]3[C@@H](F)[C@@H](F)C[C@@H](F)[C@H]3F)cc2)c1,,liver microsome stability,rat liver microsomes,1 µM,,hepatic clearance,6.1 mL/min/kg
CCCCCCCCCCCCCCCC(=O)N[C@@H](CCC(=O)NCCCC[C@H](NC(=O)[C@H](CCC(N)=O)NC(=O)[C@H](Cc1c[nH]cn1)NC(=O)[C@@H](NC(=O)[C@H](CCCCN)NC(=O)[C@H](CC(=O)O)NC(=O)[C@H](CCSC)NC(=O)[C@H](C)NC(=O)[C@@H](NC(=O)[C@H](CO)NC(=O)[C@H](Cc1ccc(O)cc1)NC(=O)[C@H](CC(=O)O)NC(=O)[C@H](CO)NC(=O)[C@@H](NC(=O)[C@H](Cc1ccccc1)NC(=O)[C@@H](NC(=O)CNC(=O)[C@H](CCC(=O)O)NC(=O)[C@H](C)NC(=O)[C@H](Cc1ccc(O)cc1)NCC(F)(F)F)[C@@H](C)O)[C@@H](C)CC)[C@@H](C)CC)[C@@H](C)CC)C(=O)N[C@@H](CC(=O)O)C(=O)N[C@@H](Cc1ccccc1)C(=O)N[C@H](C(=O)N[C@@H](CC(N)=O)C(=O)N[C@@H](Cc1c[nH]c2ccccc12)C(=O)N[C@@H](CC(C)C)C(=O)N[C@@H](CC(C)C)C(=O)N[C@@H](C)C(=O)N[C@@H](CCC(N)=O)C(=O)N[C@@H](CCCCN)C(=O)NCC(=O)N[C@@H](CCCCN)C(=O)N[C@@H](CCCCN)C(=O)N[C@@H](CC(N)=O)C(=O)N[C@@H](CC(=O)O)C(=O)N[C@@H](Cc1c[nH]c2ccccc12)C(=O)N[C@@H](CCCCN)C(=O)N[C@@H](Cc1c[nH]cn1)C(=O)N[C@@H](CC(N)=O)C(=O)N[C@H](C(=O)N[C@H](C(=O)N[C@@H](CCC(N)=O)C(=O)O)[C@@H](C)O)[C@@H](C)CC)C(C)C)C(=O)O,"Trypsin (Sus scrofa, UniProt P00761)","LC-MS, refers to: fragment 1-32",,"18 h, pH 8.0, 37 °C, added: trypsin 2.5 mg/mL",,fragment formed,15%
O=C(Nc1ccc([C@H]2[C@@H](F)[C@@H](F)C[C@@H](F)[C@H]2F)cc1)C1CC1(F)F (stereo partly drawn),,liver microsome stability,dog liver microsomes,1 µM,,hepatic clearance,12 mL/min/kg
Cc1cccc(N2CCC(C(=O)Nc3cccc(C(N)=O)c3)C2=O)c1 (stereo not drawn),HeLa,cell growth or viability,,,,CC50,> 50 µM

# A few entries again:
SMILES,tested on,test,system,setting,how to read,measurement,value
CNC(=O)C1CCCN(C(=O)C2CC3CCC2N3C(=O)[C@@H]2C[C@@H](O)CN2C(=O)NCc2cccc(Cl)c2F)C1 (mixture of isomers),"Cytochrome P450 2C8 (CYP2C8, Homo sapiens, UniProt P10632)","enzyme activity, inhibitor","human, liver microsomes",,,IC50,> 50 µM
